Earlier results as cited in several papers.
Numbers after ± are the reported error.

Under “binding free energy”, `C[S+]([O-])c1ccc(Nc2nc(OCC3CCCCC3)c3nc[nH]c3n2)cc1` (stereo not drawn) is recorded as -7.85 kcal/mol (MCL1; experimental benchmark set).
`O=c1ccc(OCCCN2CCCCC2)nn1-c1ccc(Cl)c(Cl)c1` gave an inhibition of 27.7 ± 2.1% (NMDA receptor; 1.0 µM).
`CN(CCN)Cc1ccccc1Sc1ccccc1Cl` gave an inhibition of about 40% (G9a; enzyme activity; 100 µM).
For `CS(=O)(=O)c1ccc(Nc2nc(OCC3CCCCC3)c3nc[nH]c3n2)cc1`, “binding free energy” read -9.41 kcal/mol (JNK1; more negative = stronger binding).
With `O=C(C=C(O)C(F)(F)C(F)(F)F)c1ccc(NC2CCC2)nc1` the IC50 was 260 ± 30 nM (Plasmodium falciparum formate-nitrite transporter; L-lactate transport, inhibitor, radiolabelled uptake; yeast).
The remaining activity of `Cn1nnnc1Sc1ncnc2scc(-c3cccc(S(C)(=O)=O)c3)c12` is reported as over 40% (all other kinases; inhibitor; 10 µM; relative to: control).
`CCC(=O)Nc1ccc(C(=O)C=C(O)C(F)(F)C(F)(F)F)cn1` has an IC50 of 250 ± 20 nM (Plasmodium falciparum formate-nitrite transporter; L-lactate transport, inhibitor, radiolabelled uptake; yeast).
`c1ccc2c(C3NCCc4sccc43)c[nH]c2c1` (stereo not drawn) — result for “fluorescence activity ratio”: 5.14 (P-glycoprotein (ABCB1); inhibitor; 20 µM; relative to: untreated cells, higher = stronger inhibition).
For `O=C(CCCOc1ccc(Cl)cc1)N[C@H]1CCOC1=O`, the inhibition was 50% (RhlR, Pseudomonas aeruginosa; reporter gene, antagonist, rhlA-gfp reporter; 1 mM).
For `CC(C)CNc1ccc(C(=O)C=C(O)C(F)(F)C(F)(F)F)cn1`, the IC50 was 280 ± 30 nM (Plasmodium falciparum formate-nitrite transporter; L-lactate transport, inhibitor, radiolabelled uptake; yeast).
`CSCC[C@H](NC(=O)[C@H](CC(C)C)NC(=O)[C@H](CC(C)C)NC(=O)CNC(=O)[C@H](C)NC(=O)[C@H](C)NC(=O)[C@H](CCCNC(=N)N)NC(=O)CNC(=O)[C@@H](NC(=O)[C@@H](NC(=O)[C@H](Cc1c[nH]cn1)NC(=O)[C@H](Cc1ccc(O)cc1)NC(=O)[C@H](CCCNC(=N)N)NC(=O)[C@@H]1CCCN1C(=O)[C@H](CO)NC(=O)[C@H](C)NC(=O)[C@@H](NC(=O)[C@H](Cc1c[nH]cn1)NC(=O)[C@H](CCCCN)NC(=O)[C@H](Cc1ccc(O)cc1)NC(=O)[C@@H](N)Cc1c[nH]c2ccccc12)C(C)C)[C@@H](C)O)C(C)C)C(=O)NCC(=O)N[C@@H](CC(C)C)C(N)=O` gave an EC80 of 20 nM (NPBWR1; literature value).
`COCCCNc1ccc(C(=O)C=C(O)C(F)(F)C(F)(F)F)cn1` gave an IC50 of 160 nM (Plasmodium falciparum formate-nitrite transporter (PfFNT); L-lactate transport, radiolabelled uptake; yeast).
`C/C(N)=N/C(=N\S(=O)(=O)c1ccc(C(F)(F)F)cc1)N1C[C@H](c2ccccc2)C(c2ccc(Cl)cc2)=N1`: “concentration for inhibition” 1 µM (inducible nitric oxide synthase; enzyme activity).
`O=C(N[C@@H](CCCCNC(=O)c1ccc([N+](=O)[O-])o1)c1nc2ccccc2[nH]1)c1ccc(-c2ccccc2)cc1` gave an EC50 of 800 nM (STING HAQ allele, human; agonist; THP-1 (STING HAQ)).
The IC50 of `O=C(C=C(O)C(F)(F)C(F)(F)F)c1ccc(NCC2CC2)nc1` is reported as 170 ± 10 nM (Plasmodium falciparum formate-nitrite transporter; L-lactate transport, inhibitor, radiolabelled uptake; yeast).
`c1ccc2c(C3NCCc4c3[nH]c3ccccc43)c[nH]c2c1` (stereo not drawn): “fluorescence activity ratio” 2.26 (P-glycoprotein (ABCB1); inhibitor; 20 µM; relative to: untreated cells, higher = stronger inhibition).
With `CCCCCCC(=O)N[C@H]1CCOC1=O` the inhibition was over 90% (TraR, Agrobacterium tumefaciens; reporter gene, antagonist, traI-lacZ reporter; 10 µM).
For `COc1ccc(Nc2nc(Nc3ccc(OCC[18F])cc3)ncc2Br)cc1`, the tissue uptake was 1.97 ± 0.25 %ID/g (S180 tumour-bearing mice, muscle; intravenous, 60 min).
For `Cc1[nH]c(=O)c(CNC(=O)c2cc(Cl)c3c(c2C)O[C@@](C)([C@H]2CC[C@H](N(C)C)CC2)O3)c(C)c1O`, the potency ratio was about 24 fold (EZH1; enzyme activity, inhibitor; relative to: IC50 compound over valemetostat).
`C[C@H](CN(C)Cc1ccccc1)NC(=O)c1ccc(-c2noc(C(F)(F)F)n2)cc1` gave an IC50 of over 1000 nM (class I/IIb HDAC; enzyme activity, inhibitor; HT-29).
`O=C(C=C(O)C(F)(F)C(F)(F)F)c1ccsc1` has an IC50 of 150 ± 10 nM (Plasmodium falciparum formate-nitrite transporter; L-lactate transport, inhibitor, radiolabelled uptake; yeast).
`COc1cc2c(cc1OC)C(c1c[nH]c3ccccc13)NCC2` (stereo not drawn) — result for “fluorescence activity ratio”: 2.34 (P-glycoprotein (ABCB1); inhibitor; 2 µM; relative to: untreated cells, higher = stronger inhibition).
`CS(=O)(=O)Nc1ccc(-c2cncc(-c3cccc4cc[nH]c34)c2)cc1` gave a remaining activity of under 30% (TNIK; 1 µM).
The IC50 of `O=C(C=C(O)C(F)(F)C(F)(F)F)c1ccco1` is reported as 170 ± 60 nM (Plasmodium falciparum formate-nitrite transporter; L-lactate transport, inhibitor, radiolabelled uptake; yeast).
For `COc1cc(F)cc2c(N3CCN4c5c(F)cccc5OC[C@@H]4C3)c(C#N)nnc12`, the EC50 was over 30000 nM (mGluR1-5 and mGluR8; selectivity over mGlu7).
With `O=C(CCCOc1cccc(Br)c1)N[C@H]1CCSC1=O` the activation was about 75% (RhlR; rhlA-gfp reporter, partial agonist; 20 µM).
The IC50 of `O=C(C=C(O)C(F)(F)C(F)(F)F)c1cccc(O)c1` is reported as 160 ± 10 nM (Plasmodium falciparum formate-nitrite transporter; L-lactate transport, inhibitor, radiolabelled uptake; yeast).

For quick reference, copied from above:
With `CCCCCCC(=O)N[C@H]1CCOC1=O` the inhibition was over 90% (TraR, Agrobacterium tumefaciens; reporter gene, antagonist, traI-lacZ reporter; 10 µM).
`C/C(N)=N/C(=N\S(=O)(=O)c1ccc(C(F)(F)F)cc1)N1C[C@H](c2ccccc2)C(c2ccc(Cl)cc2)=N1`: “concentration for inhibition” 1 µM (inducible nitric oxide synthase; enzyme activity).
For `COc1cc(F)cc2c(N3CCN4c5c(F)cccc5OC[C@@H]4C3)c(C#N)nnc12`, the EC50 was over 30000 nM (mGluR1-5 and mGluR8; selectivity over mGlu7).
